Measurements collected from several papers.
Each numbered part is a random draw from the data of one study; scales do not carry over between parts. Substitutions count along the parent as printed.

Sample 1 — target: CCNA2, cyclin fold, Cln2 fusion (human); method: yeast growth competition, sequencing; medium: yeast; notes: strong parent motif; relative to: not given; reading: higher = stronger binding
Starting sequence: E2F1 docking peptide (human); PPVKRRLDFETDH; partner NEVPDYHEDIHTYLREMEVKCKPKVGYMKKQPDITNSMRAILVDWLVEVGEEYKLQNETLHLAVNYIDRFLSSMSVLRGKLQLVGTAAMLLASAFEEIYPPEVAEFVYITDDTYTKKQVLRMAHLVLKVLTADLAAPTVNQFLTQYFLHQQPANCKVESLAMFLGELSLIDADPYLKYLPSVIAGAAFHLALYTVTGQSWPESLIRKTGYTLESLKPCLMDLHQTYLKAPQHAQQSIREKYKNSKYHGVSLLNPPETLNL
Substitution | normalised enrichment score
PPVKRRQDFETDH [L7Q] | 0.255
PPVKRFLDFETDH [R6F] | 4.85
PMVKRRLDFETDH [P2M] | 5.97
PPVKRRLDFENDH [T11N] | 6.17
PPVKRSLDFETDH [R6S] | 5.52
PPVKRRLDFETLH [D12L] | 5.92
PPVKRRLDFEHDH [T11H] | 6.07
PPVKRRLDFETEH [D12E] | 5.96
PKVKRRLDFETDH [P2K] | 6.98
PPVKRRYDFETDH [L7Y] | 0.501
PPVKFRLDFETDH [R5F] | 0.767
PPVKRRLDFEADH [T11A] | 5.5
PPVKRRLDFEWDH [T11W] | 6.08
PPVKRRLDFETKH [D12K] | 6.29
PPVKRRLGFETDH [D8G] | 5.82
PPVKRRLDFETYH [D12Y] | 5.92

Sample 2 — method: protein binding microarray; form: double-stranded DNA, one strand shown; medium: in vitro; tested at: not given; relative to: not given; reading: higher = stronger binding
Target: Histone acetyltransferase KAT6A, winged helix 1, GST fusion (KAT6A, Homo sapiens, UniProt Q92794, residues 1-85)
Notes: 8-mer, flanks averaged, mean of 2 arrays, mostly near background
Target sequence (chain): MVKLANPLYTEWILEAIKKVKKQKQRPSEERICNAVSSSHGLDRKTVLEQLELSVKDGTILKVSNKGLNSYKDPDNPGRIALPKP
Oligonucleotide | E-score
ACATTGCA | -0.119
CTACAAGA | -0.183
CGATCGAA | 0.0575
CCTCAATA | 0.00892
GACAAGAA | -0.0216
ATGCTCAA | -0.241
TACAATCA | -0.0388
CCTCTCGC | 0.0126
ATACGTTC | -0.105
GATGACGC | 0.16
TAAAATCA | -0.254
AAGGTAGG | -0.0934
GGGTGAAA | -0.15
ACCACCAA | -0.206
AAGTCGAG | -0.248
ACTGTGAT | -0.138
ACTAACAG | -0.0494
TGAAAACA | 0.015

Sample 3 — method: DHFR PCA, deep sequencing; medium: yeast; together with: (+)-ABA 0.0091 µM; relative to: wild-type fitted maximum; reading: higher = stronger binding
Target: ABI1, truncated, D143A, DHFR fusion (Arabidopsis thaliana)
Notes: methotrexate growth selection, single substitutions
Starting sequence: PYL1, truncated, DHFR fusion (Arabidopsis thaliana); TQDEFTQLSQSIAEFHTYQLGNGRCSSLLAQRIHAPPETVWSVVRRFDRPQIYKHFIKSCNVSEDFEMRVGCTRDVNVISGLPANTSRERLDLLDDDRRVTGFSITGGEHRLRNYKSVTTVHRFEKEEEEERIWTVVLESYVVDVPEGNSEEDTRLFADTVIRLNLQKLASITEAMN
Substitution | relative binding score [%]
E139L | -2.44
E152M | 5.75
G102Q | -6.89
T1V | 40.4
F15V | 2.55
T135H | 3.4
L29K | -1.98
T135P | -9.42
G107Q | 5.5
L82S | 11.7
R155N | -5.16

Sample 4 — target: UBE2Q1 UBC core domain (UniProt Q7Z7E8); method: yeast two-hybrid; medium: yeast; notes: mostly zero background; relative to: not given; reading: higher = stronger interaction
B1: TRIM5 RING domain (UniProt Q9C035); chain LREVKLSPEGQKVDHCARHGEKLLLFCQEDGKVICWLCERSQEHRGHHTFLTEEVAREYQVKL
B2: TRIM40 RING domain (UniProt Q6P9F5); chain LQKDNQEEGVCPICQESLKEAVSTNCGHLFCRVCLTQHVEKASASGVFCCPLCRKPCSEEVLG
B3: TRIM24 RING domain (UniProt O15164); chain EAARLNLLDTCAVCHQNIQSRAPKLLPCLHSFCQRCLPAPQRYLMLPAPMLGSAETPPPVPAPGSPVSGSSPFATQVGVIRCPVCSQECAERHII
B4: DTX4 RING domain (UniProt Q9Y2E6); chain QKVRHPPDEDCTICMERLTAPSGYKGPQPTVKPDLVGKLSRCGHVYHIYCLVAMYNNGNKDGSLQCPTCKTIYGVKTGTQ
B5: SH3RF2 RING domain (UniProt Q8TEC5); chain DDLTLLDLLECPVCFEKLDVTAKVLPCQHTFCKPCLQRVFKAHKELRCPECRTPVFSNIEAL
B6: RNF38 RING domain (UniProt Q9H0F5); chain PNNHQSEQTLCVVCMCDFESRQLLRVLPCNHEFHAKCVDKWLKANRTCPICRADASEVHRDS
B7: TRIM4 RING domain (UniProt Q9C037); chain EAEDIQEELTCPICLDYFQDPVSIECGHNFCRGCLHRNWAPGGGPFPCPECRHPSAPAALRP
B8: RNF111 RING domain (UniProt Q6ZNA4); chain EGTEEDTEEKCTICLSILEEGEDVRRLPCMHLFHQVCVDQWLITNKKCPICRVDIEAQLPSE
B9: RNF208 RING domain (UniProt Q9H0X6); chain SSAAAGEPLECPTCGHSYNVTQRRPRVLSCLHSVCEQCLQILYESCPKYKFISCPTCRRETVLFTDYG
B10: TRAF5 RING domain (UniProt O00463); chain FVERLEERYKCAFCHSVLHNPHQTGCGHRFCQHCILSLRELNTVPICPVDKEVIKSQEVFK
Residues (chain): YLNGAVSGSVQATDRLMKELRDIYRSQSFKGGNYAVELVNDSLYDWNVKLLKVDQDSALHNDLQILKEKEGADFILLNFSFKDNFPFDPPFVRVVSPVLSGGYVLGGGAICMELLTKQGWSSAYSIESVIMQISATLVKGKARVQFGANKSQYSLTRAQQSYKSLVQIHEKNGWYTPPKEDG
Molecule | lacZ reporter activity
B1 (TRIM5 RING domain) | 0
ASLPTSEEDLCPICYAHPISAVFQPCGHKSCKACINQHLMNNKDCFFCKTTIVSVEDWE (RNF123 RING domain (UniProt Q5XPI4)) | 0
B2 (TRIM40 RING domain) | 0
B3 (TRIM24 RING domain) | 0
B4 (DTX4 RING domain) | 0
MPIRALCTICSDFFDHSRDVAAIHCGHTFHLQCLIQWFETAPSRTCPQCRIQVGKRTIIN (TRAIP RING domain (UniProt Q9BWF2)) | 0
PAELEVQASECVVCLEREAQMIFLNCGHVCCCQQCCQPLRTCPLCRQDIAQRLRIY (LRSAM1 RING domain (UniProt Q6UWE0)) | 0
B5 (SH3RF2 RING domain) | 0
B6 (RNF38 RING domain) | 0
B7 (TRIM4 RING domain) | 0
B8 (RNF111 RING domain) | 0
B9 (RNF208 RING domain) | 0
FQGDVDEDLICPICSGVLEEPVQAPHCEHAFCNACITQWFSQQQTCPVDRSVVTVAHLRP (RNF41 RING domain (UniProt Q9H4P4)) | 0
B10 (TRAF5 RING domain) | 0

Sample 5 — method: RNA Bind-n-Seq; form: RNA; medium: in vitro; tested at: 365 nM; relative to: no-protein control; reading: higher = stronger binding
Target: RNA binding protein fox-1 homolog 2, RRM domain, GST-SBP tag (RBFOX2, Homo sapiens, UniProt O43251-10, residues 100-194)
Notes: natural RNA segment, single round, ends assumed
Shared flanks, not repeated: GGGAGUUCUACAGUCCGACGAUC … UGGAAUUCUCGGGUGCCAA
Target sequence (chain): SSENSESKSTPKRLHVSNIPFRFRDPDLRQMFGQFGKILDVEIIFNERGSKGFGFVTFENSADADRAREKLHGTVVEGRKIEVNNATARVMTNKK
Oligonucleotide | RBNS enrichment (R)
UCUCACUAAGCUUCGUGUAUAAAUGGAAUACAUUAUUUUUCAAACAAACGAAUAAAUGGCUUACAUGCCUGGUCUGGGACCUGUUCUUGUGCCGAGGGGUAAUGUGUACU | 0.996
GAGCCUGGUGCGCCUAGGCCCUCGGACCCCAUCCCCACCCCAGCCGGGCCCGCUCAGGAUGCCCUGGCCCAGGCUUGGGGCUGCUGGGGUUGGAAUGUGGAACUGCAGCC | 0.31
GUCUGUUGUAUUUCUGUGUGCCUGUUCCCUUCAUUGCUGUGAGUUGGGAGUGCAUUGAGAGAUGAUGUCCAUCUGAUAUAUUCCUGUGAAAUAAACUGCCAGCAAACUUU | 0.84
CUUUUUUACAACCCUUGUCCUUGGAGUUCUUAAGAUGUUGAGCGUUACCAAAUAAACCGCAUGAGACACAGCGAGCAGUGAAGUCUUUACAAGAUUAUGCAUUUGCCGAU | 2.5
UGGGGGAGCAAGACUUCAUCUGUAUGUACAUUCAGAGUCUUCCCAUAGCUCUUAAACCGUGUGGGUGAAUGGUGUCUAAUUGCACCCCUUUGUGUUCUCACUUGCAUAAA | 0.429
AACUUGGCAACAGUUUUCCUAGAGUGACUCAGACACACCACAGUAACAACUCUCGCUGCAAUUUUAUUUUAAUUUGAGAAAUAAAGAUUUCCUCCAAGCCACAUGAGGAC | 1.15
CCUGCAGUUCAGGCCUGUUUCUGUCAGAGUCAGGAACAUCUCUGAAUUAUGGAACAUUGUCUGUACCUUCUGACUUUAUGUAAGCAGUCCAUUCCAUUGCUUGUUUCUCA | 1.94
GCAGCCUCCACAGUGCGCGUUCAUUUUAUCAUAUUUUGGUAUCGGUAAUUUGAUAUAUUUCAUGGUGGCAAAAUAUUAGCUCUAUUUUGGGACUUUUUCUAGACUUACAU | 0.316
ACACCUGUGUAUGUGAAAGUCAUUUUACAUUUCCAAGCAGUCUGUUUCUUAUUUUUAUAUUUUAACUCUAUUCUUGGAUGUAUAAAGUGAACUUUUUCGCUUCUGUAAGU | 0.369
CCAUGACCAUCAGGUUAGUAACCGAGACUUUGCCCUGGUGAGCUGAGAGUAGACCUGGUUACCGGCAGUGCAUGAUGUCAGGGUCAGCCUGAAGCUAUUGCUGCUCGUCU | 4.35
UACAAAAAGACUGGCUAACCCCUCUUCCUAUUACCUUGAUCUCUUCCCCCAACUUCCUAACACUUAUUAAUUUAUGAAACUGUUUUUCUCAGCGCAGUUUUGUUUUGUGU | 0.828
AGUGGAGAAGGGCAGCCAAGUUUGGGGAGGGAGGGUGGUUAUGGAAAAACAGAACCAGCAUACCCCCAGGACCCAGCUGUGCUGGGAGCCUCAGUGUCCUCACCUGUCAA | 0.376

For quick reference, copied from above (sample 5):
Oligonucleotide | RBNS enrichment (R)
GAGCCUGGUGCGCCUAGGCCCUCGGACCCCAUCCCCACCCCAGCCGGGCCCGCUCAGGAUGCCCUGGCCCAGGCUUGGGGCUGCUGGGGUUGGAAUGUGGAACUGCAGCC | 0.31
GUCUGUUGUAUUUCUGUGUGCCUGUUCCCUUCAUUGCUGUGAGUUGGGAGUGCAUUGAGAGAUGAUGUCCAUCUGAUAUAUUCCUGUGAAAUAAACUGCCAGCAAACUUU | 0.84
CUUUUUUACAACCCUUGUCCUUGGAGUUCUUAAGAUGUUGAGCGUUACCAAAUAAACCGCAUGAGACACAGCGAGCAGUGAAGUCUUUACAAGAUUAUGCAUUUGCCGAU | 2.5
UGGGGGAGCAAGACUUCAUCUGUAUGUACAUUCAGAGUCUUCCCAUAGCUCUUAAACCGUGUGGGUGAAUGGUGUCUAAUUGCACCCCUUUGUGUUCUCACUUGCAUAAA | 0.429
AACUUGGCAACAGUUUUCCUAGAGUGACUCAGACACACCACAGUAACAACUCUCGCUGCAAUUUUAUUUUAAUUUGAGAAAUAAAGAUUUCCUCCAAGCCACAUGAGGAC | 1.15
CCUGCAGUUCAGGCCUGUUUCUGUCAGAGUCAGGAACAUCUCUGAAUUAUGGAACAUUGUCUGUACCUUCUGACUUUAUGUAAGCAGUCCAUUCCAUUGCUUGUUUCUCA | 1.94
GCAGCCUCCACAGUGCGCGUUCAUUUUAUCAUAUUUUGGUAUCGGUAAUUUGAUAUAUUUCAUGGUGGCAAAAUAUUAGCUCUAUUUUGGGACUUUUUCUAGACUUACAU | 0.316
ACACCUGUGUAUGUGAAAGUCAUUUUACAUUUCCAAGCAGUCUGUUUCUUAUUUUUAUAUUUUAACUCUAUUCUUGGAUGUAUAAAGUGAACUUUUUCGCUUCUGUAAGU | 0.369
CCAUGACCAUCAGGUUAGUAACCGAGACUUUGCCCUGGUGAGCUGAGAGUAGACCUGGUUACCGGCAGUGCAUGAUGUCAGGGUCAGCCUGAAGCUAUUGCUGCUCGUCU | 4.35
UACAAAAAGACUGGCUAACCCCUCUUCCUAUUACCUUGAUCUCUUCCCCCAACUUCCUAACACUUAUUAAUUUAUGAAACUGUUUUUCUCAGCGCAGUUUUGUUUUGUGU | 0.828
